Assay results gathered from unrelated publications.
Lines come from different studies, so protocols differ. “And” joins repeats or separate records; there may be more than shown. ± marks the error that the study gave.
MT-CYB/UQCRFS1: MT-CYB/UQCRFS1 (Homo sapiens, UniProt P00156+P47985)
Chain of UniProt P00156 (whole entry, looked up): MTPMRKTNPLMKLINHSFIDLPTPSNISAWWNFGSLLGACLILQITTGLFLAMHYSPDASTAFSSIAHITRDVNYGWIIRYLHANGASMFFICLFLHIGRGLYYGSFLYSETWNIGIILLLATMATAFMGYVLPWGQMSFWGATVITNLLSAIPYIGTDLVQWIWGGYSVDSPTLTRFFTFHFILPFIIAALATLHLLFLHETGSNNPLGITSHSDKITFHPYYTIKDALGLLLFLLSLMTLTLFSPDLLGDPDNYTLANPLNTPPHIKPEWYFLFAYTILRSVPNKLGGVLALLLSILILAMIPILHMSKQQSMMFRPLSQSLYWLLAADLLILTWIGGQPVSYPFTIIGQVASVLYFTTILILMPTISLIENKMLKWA
Chain of UniProt P47985 (whole entry, looked up): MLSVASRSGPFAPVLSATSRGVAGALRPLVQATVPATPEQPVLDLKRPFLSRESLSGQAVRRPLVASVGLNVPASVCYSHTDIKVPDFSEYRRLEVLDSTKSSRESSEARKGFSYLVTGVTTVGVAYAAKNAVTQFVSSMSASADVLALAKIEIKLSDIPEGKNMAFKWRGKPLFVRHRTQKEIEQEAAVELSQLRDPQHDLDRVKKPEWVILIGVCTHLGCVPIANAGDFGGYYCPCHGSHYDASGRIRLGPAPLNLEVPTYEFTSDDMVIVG
Dehaloperoxidase B ferric: Dehaloperoxidase B, ferric (Amphitrite ornata, UniProt Q9NAV7)
KEAP1 Kelch domain: Kelch-like ECH-associated protein 1, Kelch domain (KEAP1, Homo sapiens, UniProt Q14145)
Chain of UniProt Q16774 (whole entry, unmodified, looked up): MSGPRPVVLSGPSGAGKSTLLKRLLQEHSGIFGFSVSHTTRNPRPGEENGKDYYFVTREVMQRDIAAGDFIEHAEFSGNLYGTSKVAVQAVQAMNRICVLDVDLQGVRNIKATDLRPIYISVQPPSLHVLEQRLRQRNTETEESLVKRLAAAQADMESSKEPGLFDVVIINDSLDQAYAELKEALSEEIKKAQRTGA
Chain of UniProt Q14145 (whole entry, looked up): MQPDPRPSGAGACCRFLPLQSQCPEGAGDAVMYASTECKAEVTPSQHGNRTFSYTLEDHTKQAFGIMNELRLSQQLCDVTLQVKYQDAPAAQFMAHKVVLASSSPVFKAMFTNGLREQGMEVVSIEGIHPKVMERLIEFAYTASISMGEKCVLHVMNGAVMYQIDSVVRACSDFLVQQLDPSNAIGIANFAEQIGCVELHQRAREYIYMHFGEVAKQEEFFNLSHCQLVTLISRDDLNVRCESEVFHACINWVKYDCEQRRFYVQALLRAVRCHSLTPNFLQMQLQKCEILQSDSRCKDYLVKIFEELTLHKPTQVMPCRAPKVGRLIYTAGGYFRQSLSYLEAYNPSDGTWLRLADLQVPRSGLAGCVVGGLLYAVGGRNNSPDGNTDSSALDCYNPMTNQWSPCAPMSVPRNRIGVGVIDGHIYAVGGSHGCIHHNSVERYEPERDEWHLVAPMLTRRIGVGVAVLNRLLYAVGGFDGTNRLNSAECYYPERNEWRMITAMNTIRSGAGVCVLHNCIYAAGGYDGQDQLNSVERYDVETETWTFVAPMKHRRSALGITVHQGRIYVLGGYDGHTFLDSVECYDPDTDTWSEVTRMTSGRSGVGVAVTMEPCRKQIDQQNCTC
Chain of UniProt P51575 (whole entry, unmodified, looked up): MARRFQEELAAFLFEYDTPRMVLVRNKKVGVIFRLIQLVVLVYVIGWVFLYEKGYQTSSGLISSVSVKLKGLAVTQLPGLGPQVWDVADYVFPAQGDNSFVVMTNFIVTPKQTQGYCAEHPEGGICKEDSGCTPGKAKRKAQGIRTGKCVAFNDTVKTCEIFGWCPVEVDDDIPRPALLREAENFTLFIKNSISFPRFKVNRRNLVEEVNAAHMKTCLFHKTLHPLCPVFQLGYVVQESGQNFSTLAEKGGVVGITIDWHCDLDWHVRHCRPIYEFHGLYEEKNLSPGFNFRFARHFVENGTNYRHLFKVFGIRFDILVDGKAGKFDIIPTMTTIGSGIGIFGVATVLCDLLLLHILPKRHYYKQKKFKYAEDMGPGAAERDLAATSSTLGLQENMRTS
Chain of UniProt Q00537 (whole entry, looked up): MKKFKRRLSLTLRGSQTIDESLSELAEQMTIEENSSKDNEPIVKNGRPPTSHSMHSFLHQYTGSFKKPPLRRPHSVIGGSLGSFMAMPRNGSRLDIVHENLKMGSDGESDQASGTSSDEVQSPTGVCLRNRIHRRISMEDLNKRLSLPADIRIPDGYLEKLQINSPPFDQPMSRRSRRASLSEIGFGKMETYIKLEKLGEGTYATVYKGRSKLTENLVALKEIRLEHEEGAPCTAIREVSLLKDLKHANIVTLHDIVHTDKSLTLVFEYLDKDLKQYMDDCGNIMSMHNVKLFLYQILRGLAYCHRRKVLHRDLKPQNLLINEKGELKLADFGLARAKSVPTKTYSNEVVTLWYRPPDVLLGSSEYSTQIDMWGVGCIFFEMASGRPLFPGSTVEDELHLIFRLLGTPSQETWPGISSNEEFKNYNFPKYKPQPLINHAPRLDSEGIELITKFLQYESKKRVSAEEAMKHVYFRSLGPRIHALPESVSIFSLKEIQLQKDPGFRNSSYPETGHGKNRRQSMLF
Chain of UniProt P07339 (whole entry, looked up): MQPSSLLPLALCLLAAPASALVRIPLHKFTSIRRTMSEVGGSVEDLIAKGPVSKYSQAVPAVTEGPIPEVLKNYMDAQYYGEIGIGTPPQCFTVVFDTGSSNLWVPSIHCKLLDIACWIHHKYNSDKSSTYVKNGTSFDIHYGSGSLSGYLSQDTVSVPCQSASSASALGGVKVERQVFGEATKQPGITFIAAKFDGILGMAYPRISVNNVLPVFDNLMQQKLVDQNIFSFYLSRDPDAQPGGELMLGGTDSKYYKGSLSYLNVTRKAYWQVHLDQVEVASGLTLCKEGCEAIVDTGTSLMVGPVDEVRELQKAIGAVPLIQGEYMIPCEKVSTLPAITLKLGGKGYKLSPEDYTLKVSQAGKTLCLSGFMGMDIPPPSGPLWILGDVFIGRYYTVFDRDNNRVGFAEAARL
Chain of UniProt Q13224 (whole entry, unmodified, looked up): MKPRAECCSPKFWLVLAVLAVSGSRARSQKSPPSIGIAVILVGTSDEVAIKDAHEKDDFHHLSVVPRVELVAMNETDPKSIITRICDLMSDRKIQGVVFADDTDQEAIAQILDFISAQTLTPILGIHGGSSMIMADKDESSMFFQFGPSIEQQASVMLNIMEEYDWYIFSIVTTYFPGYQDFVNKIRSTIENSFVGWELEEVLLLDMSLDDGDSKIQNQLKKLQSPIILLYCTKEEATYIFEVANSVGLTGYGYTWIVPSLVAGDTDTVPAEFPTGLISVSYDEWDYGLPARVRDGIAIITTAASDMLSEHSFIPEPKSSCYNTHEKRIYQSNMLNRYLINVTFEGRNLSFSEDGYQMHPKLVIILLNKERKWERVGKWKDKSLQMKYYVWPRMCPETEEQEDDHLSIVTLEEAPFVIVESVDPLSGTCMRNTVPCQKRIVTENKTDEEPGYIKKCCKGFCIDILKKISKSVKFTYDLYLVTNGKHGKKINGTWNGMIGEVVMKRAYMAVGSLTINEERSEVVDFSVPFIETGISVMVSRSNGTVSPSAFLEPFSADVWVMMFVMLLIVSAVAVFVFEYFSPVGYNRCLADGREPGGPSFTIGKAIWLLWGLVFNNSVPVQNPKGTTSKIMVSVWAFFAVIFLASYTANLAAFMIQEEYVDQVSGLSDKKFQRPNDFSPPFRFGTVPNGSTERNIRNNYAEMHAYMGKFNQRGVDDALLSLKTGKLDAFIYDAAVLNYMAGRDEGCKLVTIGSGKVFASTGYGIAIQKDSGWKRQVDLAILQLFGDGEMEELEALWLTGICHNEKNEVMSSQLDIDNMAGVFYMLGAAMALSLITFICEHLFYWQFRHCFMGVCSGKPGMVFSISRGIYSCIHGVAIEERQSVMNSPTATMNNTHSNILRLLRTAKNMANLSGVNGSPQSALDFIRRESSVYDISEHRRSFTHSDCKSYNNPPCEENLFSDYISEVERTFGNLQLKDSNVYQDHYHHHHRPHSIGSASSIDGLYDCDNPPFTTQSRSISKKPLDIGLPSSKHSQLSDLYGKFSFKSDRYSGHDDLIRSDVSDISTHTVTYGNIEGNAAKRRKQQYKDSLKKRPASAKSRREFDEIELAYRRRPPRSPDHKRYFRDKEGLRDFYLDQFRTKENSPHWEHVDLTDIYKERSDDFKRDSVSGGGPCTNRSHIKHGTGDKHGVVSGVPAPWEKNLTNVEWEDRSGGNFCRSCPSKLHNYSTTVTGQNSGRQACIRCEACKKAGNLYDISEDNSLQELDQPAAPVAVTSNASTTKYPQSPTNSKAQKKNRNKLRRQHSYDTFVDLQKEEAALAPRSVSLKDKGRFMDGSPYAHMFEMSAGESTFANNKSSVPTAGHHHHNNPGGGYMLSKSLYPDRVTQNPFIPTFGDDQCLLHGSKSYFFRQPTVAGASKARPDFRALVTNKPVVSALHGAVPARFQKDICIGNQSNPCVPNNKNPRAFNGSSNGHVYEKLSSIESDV
Chain of UniProt P53341 (whole entry, looked up): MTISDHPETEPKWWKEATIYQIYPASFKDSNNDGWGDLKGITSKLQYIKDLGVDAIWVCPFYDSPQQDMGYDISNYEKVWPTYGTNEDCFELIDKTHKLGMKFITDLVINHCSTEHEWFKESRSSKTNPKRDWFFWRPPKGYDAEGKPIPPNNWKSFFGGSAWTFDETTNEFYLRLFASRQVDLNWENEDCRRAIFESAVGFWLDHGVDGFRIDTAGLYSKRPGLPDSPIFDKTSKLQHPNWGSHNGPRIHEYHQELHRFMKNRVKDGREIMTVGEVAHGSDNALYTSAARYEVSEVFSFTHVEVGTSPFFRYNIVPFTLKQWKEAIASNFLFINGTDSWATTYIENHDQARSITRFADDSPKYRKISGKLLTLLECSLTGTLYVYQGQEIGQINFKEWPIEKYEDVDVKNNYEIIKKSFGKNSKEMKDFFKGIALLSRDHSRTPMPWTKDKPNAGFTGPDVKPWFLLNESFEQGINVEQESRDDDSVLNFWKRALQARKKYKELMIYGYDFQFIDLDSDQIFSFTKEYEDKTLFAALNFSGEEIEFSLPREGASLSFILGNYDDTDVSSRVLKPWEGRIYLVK
Chain of UniProt Q05097 (whole entry, looked up): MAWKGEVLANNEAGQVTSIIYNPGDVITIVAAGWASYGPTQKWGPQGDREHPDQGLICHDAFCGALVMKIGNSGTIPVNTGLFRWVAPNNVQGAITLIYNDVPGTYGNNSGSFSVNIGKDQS

For `NC(=O)NO`, “oxygen consumption rate” read 94.1 ± 5.76% (MT-CYB/UQCRFS1; complex III-dependent respiration, Seahorse XF96; HCT-116; 10 µM, 24 h; reference: control).
`Nc1ncnc2c1ncn2[C@@H]1O[C@H](COP(=O)(O)OP(=O)(O)O)[C@@H](O)[C@H]1O` gave a ΔH of -7.3 ± 1.1 kcal/mol (GUK1 (Homo sapiens, UniProt Q16774, R137A); binding, ITC).
The protein adduct of `CCC1(O)CCCN(C(=O)c2ccc(-c3ccc(F)c(NC(=O)CCl)c3)cc2)C1` (stereo not shown) is reported as 92% (DNA dC->dU-editing enzyme APOBEC-3A (Homo sapiens, UniProt P31941); covalent modifier, intact protein mass spectrometry, measured: adduct +26309 Da; 500 µM, 1 h, 20-fold molar excess).
The product formed of `O=C1Nc2ccccc2C1=O` is reported as 5.05 M (Dehaloperoxidase B ferric; product, HPLC; 5 min, pH 7, 25 °C, enzyme 10 µM, together with: indole and H2O2 500 µM each).
For `Cc1noc(NS(=O)(=O)c2ccc(N=NN(C)O)cc2)c1C`, the inhibition was 43.25 ± 0.01% (α-glucosidase, rat intestine; enzyme activity; 240 µg/mL, together with: 4-nitrophenyl α-D-glucopyranoside).
`C=CC(=O)NCc1ccccc1CN(C(=O)Nc1cccc(C(F)(F)F)c1)C1CCN(C(C)CCC)CC1` (stereo not shown) — result for “covalent adduct formation”: 10% (DCN1-like protein 1 (Homo sapiens, UniProt Q96GG9); covalent binder, LC-TOF mass spectrometry; 60 µM, overnight, 4 °C, together with: DCN1-like protein 1 30 µM).
With `O=C(CCCCCCC(=O)Nc1ccccc1)NO` the TΔS° was 1.99 kcal/mol (HDAC8 (Homo sapiens, UniProt Q9BY41); ITC; Tris-HCl buffer; 278 K).
`C[C@H](CCC(C)(C)O)[C@H]1CC[C@H]2[C@@H]3CC=C4C[C@@](C)(O)CC[C@]4(C)[C@H]3CC[C@]12C` gave a current response of 427 ± 35% (Glutamate NMDA receptor; GRIN1/GRIN2B (GRIN1/GRIN2B, Homo sapiens, UniProt Q05586+Q13224, F550A); positive allosteric modulator, two-electrode voltage clamp; Xenopus oocytes expressing GluN2B-F550A; 10 µM, 0.02% cremophor, together with: 100 µM glutamate and glycine; reference: without compound).
`CC1(C)C(N(O)C(=O)Nc2ccc(Cl)cc2)N(c2ccc(Cl)cc2)C(=O)N1CC(=O)N/N=C/C=C/c1ccc([N+](=O)[O-])o1` (stereo not shown) has an FLuc/RLuc ratio of 0.411 (Protein transport protein Sec61 subunit alpha isoform 1 (Homo sapiens, UniProt P61619); Sec61-dependent translocation, inhibitor, measured: CD4 signal peptide-FLuc reporter; HEK293; concentration not given, 6 h; reference: mock).
With `Nc1ncnc2c1ncn2[C@@H]1O[C@H](CO[P@](=O)(O)O[P@](=O)(O)O[P@@](=O)(O)S)[C@@H](O)[C@H]1O` the ΔH was -1.54 kcal/mol (GUK1 (Homo sapiens, UniProt Q16774); binding, isothermal titration calorimetry; molar ratio 0.4975, fitted curve).
`NC(=O)NOCCCCCCCCCCCCCCCC[P+](c1ccccc1)(c1ccccc1)c1ccccc1.O=C([O-])C(F)(F)F` — result for “oxygen consumption rate”: 68.5% (MT-CYB/UQCRFS1; complex III-dependent respiration, Seahorse XF96; HCT-116; 0.8 µM, 24 h; reference: control).
`NC(=O)c1ccc[n+]([C@@H]2O[C@H](COP(=O)([O-])OP(=O)(O)OC[C@H]3O[C@@H](n4cnc5c(NCCNC(=O)CCCCCNC(=O)CCCCCNC(=O)CCCC[C@@H]6SC[C@@H]7NC(=O)N[C@@H]76)ncnc54)[C@H](O)[C@@H]3O)[C@@H](O)[C@H]2O)c1` has an apparent Km of 31 µM (PARP1 (Homo sapiens, UniProt P09874); substrate, DELFIA auto-modification).
`Cc1ccc(C)c(N2C(=O)c3ccc(-c4nc(-c5ccc6[nH]nnc6c5)no4)cc3C2=O)c1`: activity class “inactive” (Kelch-like ECH-associated protein 1, with NRF2 (Mus musculus, UniProt Q9Z2X8); binding; concentration not given, biochemical).
`CC(=O)N[C@H](C(=O)N1C[C@H](O)C[C@H]1C(=O)NCc1ccc(-c2scnc2C)cc1)C(C)(C)SCCCCCCNC(=O)C[C@@H]1N=C(c2ccc(Cl)cc2)c2c(sc(C)c2C)-n2c(C)nnc21` has a ΔG of -10.2 ± 0.1 kcal/mol (Bromodomain-containing protein 4, BD2 (BRD4, Homo sapiens, UniProt O60885); ITC; 25 °C, binary).
`O=c1nc(SCc2cc(F)cc(C(F)(F)F)c2)nc(SCc2csc3ccc(Cl)cc23)[nH]1` — result for “mean linear DNA”: 0% (TOP2A (Homo sapiens, UniProt P11388); DNA cleavage; 3.9 µM).
For `CN(C)C(=O)C(CCN1CCC(O)(c2ccc(Cl)cc2)CC1)(c1ccccc1)c1ccccc1`, the normalized Gmax was 0.24 ± 0.04 (Calcium-activated potassium channel subunit alpha-1, with LRRC26 γ1 subunit (KCNMA1, Homo sapiens, UniProt Q12791); BK current, inhibitor, inside-out patch clamp; excised membrane patch; 10 µM, γ1 coexpressed, individual fits, together with: nominally 0 Ca2+ cytosolic; reference: without loperamide).
`CC(=O)c1ccccc1O` has an inhibition of 2.11% (THP-1; pyroptotic LDH release; 2 µM, 40 min, together with: LPS then nigericin).
`NC(=O)NOCCCCCCCCCCCCCCCCCCCC[P+](c1ccccc1)(c1ccccc1)c1ccccc1.O=C([O-])C(F)(F)F`: “oxygen consumption rate” 96.6% (MT-CYB/UQCRFS1; complex III-dependent respiration, Seahorse XF96; HCT-116; 1 µM, 24 h; reference: control).
`CC(=C/C(=O)O)/C=C/C=C(\C)C1C=C2C(C)(C)CCCC2(C)O1` (stereo not shown): “Pearson correlation coefficient” 0.77 (Rhodopsin (RHO, Homo sapiens, UniProt P08100, P23H); ER retention, immunostaining co-localization, measured: opsin with calnexin; COS-7 transfected P23H; 0.05 µM).
For `Nc1ncnc2c1ncn2[C@@H]1O[C@H](CSCC[C@H](N)C(=O)O)[C@@H](O)[C@H]1O`, “ΔG of binding” read -8.42 kcal/mol (O-methyltransferase (Sorghum bicolor, UniProt A0A1B6PFV1); concentration not given, together with: PTR+).
For `CO[C@@H]1O[C@H](CO)[C@H](O)[C@H](O)[C@H]1O`, “relative potency β” read 1 (lecA (Pseudomonas aeruginosa, UniProt Q05097); ITC; reference: monovalent Kd over compound Kd).
`Nc1ncnc2c1ncn2[C@@H]1O[C@H](COP(=O)(O)CP(=O)(O)OP(=O)(O)O)[C@@H](O)[C@H]1O` gave a specific binding of 801 CCPM and 872 CCPM (P2X purinoceptor 1 (P2RX1, Homo sapiens, UniProt P51575, K136W); saturation binding; HEK293; 13 nM).
The selectivity ratio of `Oc1ccccc1-c1n[nH]cc1-c1ccnc2ccccc12` is reported as 21 (TGFBR1 (Homo sapiens, UniProt P36897); reference: IC50 on target over Yck2).
The TΔS of `CC[C@H](C)[C@H](NC(=O)[C@@H]1CCCN1C(=O)[C@H](CC(C)C)NC(=O)[C@H](Cc1ccccc1)NC(=O)[C@H](CCC(=O)O)NC(=O)CNC(=O)[C@@H](NC(=O)[C@H](CCC(=O)O)NC(=O)[C@H](CCC(=O)O)NC(=O)[C@H](CC(=O)O)NC(=O)[C@H](CC(C)C)NC(=O)[C@H](CCC(N)=O)NC(=O)[C@H](CC(C)C)NC(=O)[C@H](CCC(N)=O)NC(=O)[C@H](C)NC(=O)[C@H](Cc1ccccc1)NC(C)=O)[C@@H](C)O)C(=O)N[C@@H](CCC(N)=O)C(=O)N1CCC[C@H]1C(=O)N[C@@H](C)C(=O)N[C@@H](CCC(N)=O)C(N)=O` is reported as -7.18 kcal/mol (KEAP1 Kelch domain; binding, ITC; pH 7, 298.15 K).
`O=C1Nc2ccc(Br)cc2C1=O`: “share of total products” 3% (Dehaloperoxidase B ferric; product, HPLC; together with: 5-bromoindole 500 µM, H2O2 250 µM).
For `CN(O)N=Nc1ccc(S(=O)(=O)Nc2nccs2)cc1`, the inhibition was 15 ± 1.38% (α-glucosidase, rat intestine; enzyme activity; 60 µg/mL, together with: 4-nitrophenyl α-D-glucopyranoside).
For `CC(C)CC(=O)N[C@H](C(=O)N[C@H](C(=O)N[C@@H](CC(C)C)[C@@H](O)CC(=O)N[C@@H](C)C(=O)N[C@@H](CC(C)C)[C@@H](O)CC(=O)NCCOCCC(=O)NCCCC[C@H](NC(=O)CN1CCN(CC(=O)O)CCN(CC(=O)O)CC1)C(=O)O)C(C)C)C(C)C`, “association rate constant” read 232 M⁻¹ s⁻¹ (Cathepsin D (CTSD, Homo sapiens, UniProt P07339); surface plasmon resonance).
`O=C(O)COCCN1CCN([C@H](c2ccccc2)c2ccc(Cl)cc2)CC1` has an inhibition of 2.58% (THP-1; pyroptotic LDH release; 2 µM, 40 min, together with: LPS then nigericin).
For `COc1cc(O)c2c(c1)oc(=O)c1c3cc(O)c(O)cc3oc21`, “number of binding sites” read 1.05 (MAL12 (Saccharomyces cerevisiae S288c, UniProt P53341); fluorescence quenching; concentration not given, 307 K).
For `CC[C@@H]1[C@H](F)C(=O)N[C@@H]1COc1nccc2cc(C(N)=O)c(OC)cc12`, the inhibition was 11.5% (STE20-related kinase adapter protein beta (Homo sapiens, UniProt Q9C0K7); ATP probe binding, KiNativ profiling, measured: Lys1 probe site; THP-1 cell lysate; 0.2 mM).
With `CC[C@H](C)[C@H](NC(=O)[C@@H]1CCCN1C(=O)[C@H](CC(C)C)NC(=O)[C@H](Cc1ccccc1)NC(=O)[C@H](CCC(=O)O)NC(=O)CNC(=O)[C@@H](NC(=O)[C@H](CCC(=O)O)NC(=O)[C@@H]1CCCN1C(=O)[C@H](CC(=O)O)NC(=O)[C@H](CC(C)C)NC(=O)[C@H](CCC(N)=O)NC(=O)[C@H](CC(C)C)NC(=O)[C@H](CCC(N)=O)NC(=O)[C@H](C)NC(=O)[C@H](Cc1ccccc1)NC(C)=O)[C@@H](C)O)C(=O)N[C@@H](CCC(N)=O)C(=O)N1CCC[C@H]1C(=O)N[C@@H](C)C(=O)N[C@@H](CCC(N)=O)C(N)=O` the TΔS was -5.37 kcal/mol (KEAP1 Kelch domain; binding, ITC; pH 7, 298.15 K).
For `CCN1CCC[C@H]1CNC(=O)c1c(O)c(Cl)cc(Cl)c1OC`, “log2 fold change” read 0.312 (Mas-related G-protein coupled receptor MRG (MAS1L, Homo sapiens, UniProt P35410); β-arrestin recruitment, TANGO luminescence, measured: MAS1L; concentration not given; reference: basal luminescence).
`NC(=O)NOCCCCCCCCCCCCCC[P+](c1ccccc1)(c1ccccc1)c1ccccc1.O=C([O-])C(F)(F)F`: “oxygen consumption rate” 67.5 ± 5.85% (MT-CYB/UQCRFS1; complex III-dependent respiration, Seahorse XF96; HCT-116; 1 µM, 24 h; reference: control).
`O=C1Cc2ccccc2N1` gave a product formed of 37.3 M (Dehaloperoxidase B ferric; product, HPLC; 5 min, pH 7, 25 °C, enzyme 10 µM, together with: indole and H2O2 500 µM each).
`COc1cc(-c2cncc3c2CN(C)Cc2cc(N4CCNCC4)ccc2-3)cc(OC)c1OC` has a remaining activity of 108% (Cyclin-dependent kinase 17, with cyclin Y (CDK17, Homo sapiens, UniProt Q00537); kinase activity; 1 µM, human enzyme, together with: ATP 10 µM; reference: DMSO control).
`NC(=O)NOCCCCCCCCCC[P+](c1ccccc1)(c1ccccc1)c1ccccc1.O=C([O-])C(F)(F)F`: “oxygen consumption rate” 97.8 ± 5.05% (MT-CYB/UQCRFS1; complex III-dependent respiration, Seahorse XF96; HCT-116; 3 µM, 24 h; reference: control).
For `Cc1ccc(N(O)N=Nc2ccc(S(=O)(=O)Nc3onc(C)c3C)cc2)cc1`, the inhibition was 40 ± 0.16% (α-glucosidase, rat intestine; enzyme activity; 240 µg/mL, together with: 4-nitrophenyl α-D-glucopyranoside).

Repeated from above:
With `O=C(CCCCCCC(=O)Nc1ccccc1)NO` the TΔS° was 1.99 kcal/mol (HDAC8 (Homo sapiens, UniProt Q9BY41); ITC; Tris-HCl buffer; 278 K).
`C[C@H](CCC(C)(C)O)[C@H]1CC[C@H]2[C@@H]3CC=C4C[C@@](C)(O)CC[C@]4(C)[C@H]3CC[C@]12C` gave a current response of 427 ± 35% (Glutamate NMDA receptor; GRIN1/GRIN2B (GRIN1/GRIN2B, Homo sapiens, UniProt Q05586+Q13224, F550A); positive allosteric modulator, two-electrode voltage clamp; Xenopus oocytes expressing GluN2B-F550A; 10 µM, 0.02% cremophor, together with: 100 µM glutamate and glycine; reference: without compound).
`CC1(C)C(N(O)C(=O)Nc2ccc(Cl)cc2)N(c2ccc(Cl)cc2)C(=O)N1CC(=O)N/N=C/C=C/c1ccc([N+](=O)[O-])o1` (stereo not shown) has an FLuc/RLuc ratio of 0.411 (Protein transport protein Sec61 subunit alpha isoform 1 (Homo sapiens, UniProt P61619); Sec61-dependent translocation, inhibitor, measured: CD4 signal peptide-FLuc reporter; HEK293; concentration not given, 6 h; reference: mock).
With `Nc1ncnc2c1ncn2[C@@H]1O[C@H](CO[P@](=O)(O)O[P@](=O)(O)O[P@@](=O)(O)S)[C@@H](O)[C@H]1O` the ΔH was -1.54 kcal/mol (GUK1 (Homo sapiens, UniProt Q16774); binding, isothermal titration calorimetry; molar ratio 0.4975, fitted curve).
`NC(=O)NOCCCCCCCCCCCCCCCC[P+](c1ccccc1)(c1ccccc1)c1ccccc1.O=C([O-])C(F)(F)F` — result for “oxygen consumption rate”: 68.5% (MT-CYB/UQCRFS1; complex III-dependent respiration, Seahorse XF96; HCT-116; 0.8 µM, 24 h; reference: control).
`NC(=O)c1ccc[n+]([C@@H]2O[C@H](COP(=O)([O-])OP(=O)(O)OC[C@H]3O[C@@H](n4cnc5c(NCCNC(=O)CCCCCNC(=O)CCCCCNC(=O)CCCC[C@@H]6SC[C@@H]7NC(=O)N[C@@H]76)ncnc54)[C@H](O)[C@@H]3O)[C@@H](O)[C@H]2O)c1` has an apparent Km of 31 µM (PARP1 (Homo sapiens, UniProt P09874); substrate, DELFIA auto-modification).
